Measured values collected from several papers.
Compare with care: the assays were run in different laboratories. Values joined by “and” are separate records of one study, mostly repeats; a detail may differ. ± marks the error that the study gave.
rep main protease: Replicase polyprotein 1ab, main protease (rep, Severe acute respiratory syndrome coronavirus 2, UniProt P0DTD1)
rep papain-like protease: Replicase polyprotein 1ab, papain-like protease (rep, Severe acute respiratory syndrome coronavirus 2, UniProt P0DTD1)
rep nsp14 methyltransferase: Replicase polyprotein 1ab, nsp14 methyltransferase (rep, Severe acute respiratory syndrome coronavirus 2, UniProt P0DTD1)
rep nsp3 macrodomain: Replicase polyprotein 1ab, nsp3 macrodomain (rep, Severe acute respiratory syndrome coronavirus 2, UniProt P0DTD1)

| SMILES | target | assay | system | setting | scale | quantity | result |
| --- | --- | --- | --- | --- | --- | --- | --- |
| C=C1CCC2[C@](C)(CO)[C@H](O)CC[C@@]2(C)[C@@H]1/C=C/C1=CCOC1=O (stereo partly shown) | rep main protease | enzyme activity, inhibitor | – | 20 µM | – | remaining activity | > 99% |
| COc1cc2c(cc1OC)-c1c(OC)c(OC)cc3c1[C@H](C2)N(C)CC3 | rep main protease | STD NMR, measured: proton H-15 | – | – | relative to: H-8 signal | relative STD saturation | 44.4% |
| O=C(NCCc1cccc(F)c1)[C@@H](c1cncnc1)N(C(=O)[C@@H](F)Cl)c1ccc(S(F)(F)(F)(F)F)cc1 | rep main protease | enzyme activity, inhibitor | – | – | – | kinact | 0.0011 s⁻¹ |
| Cc1ccc(OCCN(C)C)cc1C(=O)N[C@H](C)c1cc(-c2ccco2)nc2ccccc12 | rep papain-like protease | reporter gene, cell-based | – | – | – | GFP/mCherry signal ratio | 11.3 and 0 and 92 and 92.5 and 38.1 and 68 |
| CNC(=O)C[C@H](Cc1ccc(F)cc1)NC(=O)[C@@H](Cc1ccc(Cl)cc1Cl)NC(=O)[C@H](N)Cc1ccccc1[N+](=O)[O-] | rep main protease | 3CL protease activity | – | 0.04576 µM | – | remaining activity | 73.4% |
| O=C(CCl)N1CCN(S(=O)(=O)c2cccs2)CC1 | rep main protease | inhibitor, biochemical | – | – | – | kinact/Ki | 770 M⁻¹ s⁻¹ |
| Nc1ccn([C@@H]2O[C@H](COP(=O)(O)OP(=O)(O)OP(=O)(O)O)[C@@H](O)[C@@H]2O)c(=O)n1 | Replicase polyprotein 1ab, nsp12 RdRp (rep, Severe acute respiratory syndrome coronavirus 2, UniProt P0DTD1) | nucleotide incorporation, substrate | – | – | – | Vmax | 0.94 fraction per time |
| c1ccc(C[Se][Se]Cc2ccccc2)cc1 | rep main protease | enzyme activity, inhibitor | – | 40 µM, mean of repeats | – | inhibition | 75.1% |
| CC(=O)Nc1ccc(-c2cnc(N3C(=O)CSC3c3cc4ccccc4nc3Cl)s2)cc1 (stereo not shown) | rep main protease | thermal stability | – | 100 µM | – | ΔTm | -1 °C |
| CC(C)=CCc1c(O)cc(O)c2c(=O)cc(-c3ccc(O)cc3)oc12 | Replicase polyprotein 1ab, nsp13 helicase (rep, Severe acute respiratory syndrome coronavirus 2, UniProt P0DTD1) | inhibitor | – | – | relative to: ATPase IC50 over unwinding IC50 | selectivity ratio | ~20 fold |
| CC(C)(C)OC(=O)N[C@H]1CCCCC/C=C\[C@@H]2C[C@@]2(C(=O)NS(=O)(=O)C2CC2)NC(=O)[C@@H]2C[C@@H](OC(=O)N3Cc4cccc(F)c4C3)CN2C1=O | rep papain-like protease | protease activity, inhibitor, fluorescence | – | 20 µM, 25 °C | – | remaining activity | no inhibition |
| CNC(=O)CC[C@H](Cc1ccccc1)NC(=O)[C@@H](Cc1ccc(Cl)cc1Cl)NC(=O)[C@H](N)Cc1ccccc1[N+](=O)[O-] | rep main protease | – | – | 0.0001693 µM | – | remaining activity | 97.4% |
| CC(C)CC(NC(=O)OCc1ccccc1)C(=O)NC(CC1CCNC1=O)C(=O)C(=O)NC1CC1 (stereo not shown) | rep main protease | thermal stability, DSF | – | – | – | ΔTm | 11.1 °C |
| CC1(C)C2CCC1(C)C(n1[se]c3ccccc3c1=O)C2 (stereo not shown) | rep main protease | enzyme activity, inhibitor | – | 40 µM | – | inhibition | 99.1% |
| CC1CC(c2ccc(C(=O)NS(C)(=O)=O)cc2)=NN1c1ccc(C#N)c(Cl)c1 (stereo not shown) | rep nsp14 methyltransferase | – | – | – | – | lipophilic ligand efficiency | 2.1 |
| O=C(CCc1ccccc1)NOC(=O)OCc1ccccc1 | rep main protease | enzyme inactivation, inhibitor | – | 1 to 30 µM | – | kinact | 0.0075 ± 0.0005 s⁻¹ |
| Cc1ccc(OCCN(C)C)cc1C(=O)N[C@H](C)c1cc(-c2cncs2)nc2ccccc12 | rep papain-like protease | reporter gene, cell-based | – | – | – | GFP/mCherry signal ratio | 33.6 and 119 and 0 and 87.2 and 72.4 and 2.85 |
| CC(=O)N[C@@H](Cc1ccc(O)cc1)C(=O)N[C@@H](CCCNC(=N)N)C(=O)N[C@@H](Cc1ccccc1)C(=O)N[C@H]1CCC[C@@H]1C(=O)N[C@@H](CCCNC(=N)N)C(=O)N[C@@H](CC(N)=O)C(=O)N[C@H]1CCC[C@@H]1C(=O)N[C@H](C(=O)N[C@@H](Cc1ccccc1)C(=O)N[C@H]1CCC[C@@H]1C(=O)N[C@@H](Cc1ccccc1)C(=O)N[C@@H](Cc1ccc(O)cc1)C(=O)N[C@H]1CCC[C@@H]1C(=O)N[C@H](C(=O)N[C@@H](CC(=O)O)C(N)=O)[C@@H](C)O)C(C)C | rep main protease | binding, SPR | – | – | – | koff | 0.0121 s⁻¹ |
| CCOc1cccc(NC(=O)CSc2cn(C(=O)OC(C)(C)C)c3ccccc23)c1 | Replicase polyprotein 1ab, nsp12 with nsp14/nsp10 (rep, Severe acute respiratory syndrome coronavirus 2, UniProt P0DTD1) | SARS-CoV-2 RdRp activity, CoV-Gluc reporter | HEK293T | – | relative to: with nsp14/nsp10 over nsp12 alone | EC50 ratio | 1.21 |

| SMILES | target | assay | system | setting | scale | quantity | result |
| --- | --- | --- | --- | --- | --- | --- | --- |
| CCC1c2ccsc2CCN1C(=O)Cn1nnc2ccccc21 (stereo not shown) | rep main protease | protease activity, SAMDI-MS | – | – | – | Hill slope | 1.54 and 1.55 |
| O=C(NC1CCC(F)(F)CC1)C(c1cncnc1)N(C(=O)C(F)Cl)c1ccc(OC(F)(F)F)cc1 (stereo not shown) | rep main protease | enzyme activity, inhibitor | – | 11 nM | – | inhibition | 5.09% |
| CNC(=O)CC1CN(C(=O)c2ccc(C(F)(F)F)cn2)CCN1C(=O)c1cccnn1 (stereo not shown) | rep main protease | – | – | 0.5229 µM | – | remaining activity | 103% |
| Cc1cc(C(=O)COn2nnc3ccc(S(C)(=O)=O)cc32)c(C)n1C | rep main protease | protease activity, SAMDI-MS | – | – | – | Hill slope | 1.91 |
| COC(=O)C(=O)/C(=C\c1ccc(-c2ccccc2[N+](=O)[O-])o1)C(=O)c1ccccc1 | rep main protease | enzyme activity, inhibitor | – | 10 µM | – | Vmax | 14.2 ± 2.3 RFU/s |
| NS(=O)(=O)c1cccc2c1C(=O)c1cccc(O)c1C2=O | rep main protease | 3CL protease activity | – | – | – | maximum inhibition | 83% |
| CCn1ccc(-c2cc(C(C)NC(=O)c3cc(N4CC5CC4CN5C)ccc3C)c3ccccc3n2)n1 (stereo not shown) | rep papain-like protease | reporter gene, cell-based | – | – | – | GFP/mCherry signal ratio | 41.1 and 10.5 and 65.9 and 19.6 and 93.7 and 88.1 |
| CC[C@@H](C)[C@H](NC(=O)c1ccccc1[Se][Se]c1ccccc1C(=O)N[C@H](C(=O)OC)[C@H](C)CC)C(=O)OC | rep main protease | enzyme activity, inhibitor | – | 40 µM, mean of repeats | – | inhibition | 102% |
| O=C(c1cccc(Br)c1)N1CCC(c2ccn3ncc(C(=O)N4CCCCC4)c3c2)CC1 | rep nsp3 macrodomain | enzyme activity, inhibitor, ADPr-Glo | – | concentration not given, SARS-CoV-2 | – | ADP-ribosylhydrolase inhibition | inhibited |
| Cc1ccccc1[C@@H](C)N(C)Cc1cc(O)ccc1Cl | rep papain-like protease | thermal stability, DSF | – | – | – | ΔTm | 2.18 °C |
| C=CC(=O)N(c1ccc(C(C)(C)C)cc1)C(C(=O)NCCc1cccc(F)c1)c1cccnc1 (stereo not shown) | rep main protease | enzyme activity, inhibitor | – | – | – | kinact/KI | 81.2 M⁻¹ s⁻¹ |
| N#Cc1ccccc1-c1cc(-c2cccc(Cl)c2)c(=O)n(-c2cccnc2)c1 | rep main protease | inhibitor, FRET | – | concentration not given | relative to: perampanel | fold improvement in inhibition | > 10 fold |
| COc1cc(OC)cc(C(=O)N(CCC(=O)N2CCNCC2)Cc2cccc(Cl)c2)c1 | rep nsp3 macrodomain | ADP-ribosylhydrolase activity, ADPr-Glo | SARS-CoV-2 | – | – | maximum inhibition | ~60% |
| CNC(=O)C[C@H](Cc1ccc(F)cc1)NC(=O)[C@@H](Cc1ccc(Cl)cc1Cl)NC(=O)[C@H](N)Cc1ccccc1C#N | rep main protease | 3CL protease activity | – | 0.04576 µM | – | remaining activity | 33.5% |
| CCN1C(=O)CCC1c1c(O)cc(O)c2c1O[C@H](c1cc(O)c(O)c(O)c1)[C@H](OC(=O)c1cc(O)c(O)c(O)c1)C2 (stereo partly shown) | rep main protease | surface plasmon resonance | – | – | – | Rmax | 110 RU |
| N#Cc1ccc(N2N=C(c3ccc(C(=O)O)cc3)CC2C2CCCC2)cc1Cl (stereo not shown) | rep nsp14 methyltransferase | – | – | – | – | lipophilic ligand efficiency | 0.7 |
| CCOc1ccc(CN2CC[C@H]2C(=O)NC)cc1-c1cccc(C(=O)NC[C@@H]2COC(C)(C)O2)c1 | rep main protease | – | – | 0.5229 µM | – | remaining activity | 111% |
| O=C(NC1CCC(F)(F)CC1)C(c1cncnc1)N(C(=O)C(F)Cl)c1ccc(-c2cncs2)cc1 (stereo not shown) | rep main protease | enzyme activity, inhibitor | – | 25 µM | – | inhibition | 102% |

For quick reference, copied from above:
| SMILES | target | assay | system | setting | scale | quantity | result |
| --- | --- | --- | --- | --- | --- | --- | --- |
| Cc1ccc(OCCN(C)C)cc1C(=O)N[C@H](C)c1cc(-c2cncs2)nc2ccccc12 | rep papain-like protease | reporter gene, cell-based | – | – | – | GFP/mCherry signal ratio | 33.6 and 119 and 0 and 87.2 and 72.4 and 2.85 |
| CC(=O)N[C@@H](Cc1ccc(O)cc1)C(=O)N[C@@H](CCCNC(=N)N)C(=O)N[C@@H](Cc1ccccc1)C(=O)N[C@H]1CCC[C@@H]1C(=O)N[C@@H](CCCNC(=N)N)C(=O)N[C@@H](CC(N)=O)C(=O)N[C@H]1CCC[C@@H]1C(=O)N[C@H](C(=O)N[C@@H](Cc1ccccc1)C(=O)N[C@H]1CCC[C@@H]1C(=O)N[C@@H](Cc1ccccc1)C(=O)N[C@@H](Cc1ccc(O)cc1)C(=O)N[C@H]1CCC[C@@H]1C(=O)N[C@H](C(=O)N[C@@H](CC(=O)O)C(N)=O)[C@@H](C)O)C(C)C | rep main protease | binding, SPR | – | – | – | koff | 0.0121 s⁻¹ |
| CCOc1cccc(NC(=O)CSc2cn(C(=O)OC(C)(C)C)c3ccccc23)c1 | Replicase polyprotein 1ab, nsp12 with nsp14/nsp10 (rep, Severe acute respiratory syndrome coronavirus 2, UniProt P0DTD1) | SARS-CoV-2 RdRp activity, CoV-Gluc reporter | HEK293T | – | relative to: with nsp14/nsp10 over nsp12 alone | EC50 ratio | 1.21 |
| CCC1c2ccsc2CCN1C(=O)Cn1nnc2ccccc21 (stereo not shown) | rep main protease | protease activity, SAMDI-MS | – | – | – | Hill slope | 1.54 and 1.55 |
| O=C(NC1CCC(F)(F)CC1)C(c1cncnc1)N(C(=O)C(F)Cl)c1ccc(OC(F)(F)F)cc1 (stereo not shown) | rep main protease | enzyme activity, inhibitor | – | 11 nM | – | inhibition | 5.09% |
